{"data": "Measurements collected from several papers", "note": "A part holds a random share of what one study measured."}
{"data": "Block 1", "target": "RNA binding protein fox-1 homolog 2, RRM domain, GST-SBP tag (RBFOX2, Homo sapiens, UniProt O43251-10, residues 100-194)", "method": "RNA Bind-n-Seq", "molecule type": "RNA", "matrix": "in vitro", "tested at": "365 nM", "notes": "natural RNA segment, single round, ends assumed", "reference": "no-protein control", "direction": "higher = stronger binding", "all sequences stand within": "GGGAGUUCUACAGUCCGACGAUC … UGGAAUUCUCGGGUGCCAA", "Residues (chain)": "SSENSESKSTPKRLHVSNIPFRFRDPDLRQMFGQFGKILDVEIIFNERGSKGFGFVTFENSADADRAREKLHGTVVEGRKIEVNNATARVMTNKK"}
{"Sequence": "ACAGUUACAACCCACUGGGGCUGGUGGGAGAUGCGUUGUAUGGGACUGGAAGCAAGAGGUUCAUUCAAAGAGAAACUCAUGGGAUUUGUAACCAGAUGAAUCAUGAUUUC", "RBNS enrichment (R)": 1}
{"Sequence": "AGGGGACCCCUACUAAAGGGUAACUUCAGGUGUGCAGCCCUGAGCUCCAAGGCUCUGCACCAUGCCACACACUUGCUGUAAGGCUAGAAGUGAAGACCUUAUUAAUAGGA", "RBNS enrichment (R)": 0.218}
{"Sequence": "CUACCAUAGAGACGACGCCUCGUAGACCUAAACUCAGACUGUCAGAGGAAAGACACCACAACCAACACGAAAGCAAUUCCUCAUCCUCAGAUGCUCAAAGUCCCUUUUCU", "RBNS enrichment (R)": 0.442}
{"Sequence": "UACUUUUUUCCUGUUGUGUUGAAUACUGGAGAAAUAGAAGGUUCAAGAUAGAGGCAGACCUGACUGUUUCUUGAGGGUCCAUCAGGCAUCUCCAGGAGCUGGCCAGUUAU", "RBNS enrichment (R)": 0.338}
{"Sequence": "UUUUGGUAUGAUAAAGACCCCAAAAUGCCUUUUUUUUAAAGUGGGGAGAGGGAGGAGGUACGCCGGGAGCCUCUUUAACCUCCAUAGGCUGUGUUUGCUCCCAAAUCUGC", "RBNS enrichment (R)": 1.1}
{"Sequence": "CUCCAAGUUUCUGCCUAGGCGCCUGUGCGUUUCCUUUCUGUGACGGGAUUAGCUUAGACAUCCUUGCAAAGCGAUCACUUUCAAUAAAUUGGGAAAUUGCUGCUCCAGCA", "RBNS enrichment (R)": 0.543}
{"Sequence": "CGGCUCUCAGAAGCAUUCACACGCACAGAUGUGCAACCUCAGCCAGAAGUUGAAGCUCUUUAAGCCAUUUUAUUUAUUUUGUUUUUUACAGAAUUUGUGCUUUGGUUUGC", "RBNS enrichment (R)": 0.353}
{"Sequence": "AUGAGUAACCUAAGGGAAGUGCUGAAUGGUGUUGGCAGGGGUAUUAAACGUGCAUUUUUACUCAACUACCUCAGGUAUUCAGUAAUACAAUGAAAAGCAAAAUUGUUCCU", "RBNS enrichment (R)": 0.386}
{"data": "Block 2", "target": "Ras GTPase-activating protein-binding protein 1, C-terminal RGG region (G3BP1, Homo sapiens, UniProt Q13283)", "method": "RNA Bind-n-Seq", "molecule type": "RNA", "matrix": "in vitro", "tested at": "1 µM", "notes": "whole 134-nt RNA, ends assumed", "added": "150 mM KCl", "reference": "input library", "direction": "higher = stronger binding", "all sequences stand within": "GGGAGUUCUACAGUCCGACGAUC … UGGAAUUCUCGGGUGUCAAGG", "UniProt Q13283, sequence (whole entry, looked up)": "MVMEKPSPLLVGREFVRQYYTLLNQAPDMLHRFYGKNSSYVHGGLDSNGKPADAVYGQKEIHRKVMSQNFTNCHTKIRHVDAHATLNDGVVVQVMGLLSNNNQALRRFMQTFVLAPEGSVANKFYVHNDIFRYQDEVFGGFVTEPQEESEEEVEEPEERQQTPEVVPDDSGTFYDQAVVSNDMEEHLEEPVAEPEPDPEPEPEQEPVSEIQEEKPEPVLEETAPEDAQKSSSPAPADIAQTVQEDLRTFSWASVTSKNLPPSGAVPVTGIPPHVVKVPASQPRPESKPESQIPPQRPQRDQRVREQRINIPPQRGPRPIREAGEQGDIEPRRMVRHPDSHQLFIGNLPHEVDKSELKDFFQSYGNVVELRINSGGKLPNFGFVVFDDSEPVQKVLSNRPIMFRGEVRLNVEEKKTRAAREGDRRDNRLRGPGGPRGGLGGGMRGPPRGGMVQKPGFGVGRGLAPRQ"}
{"Sequence": "AAGUCCUGUGCUACACAUCGUAUGUACCGAAUCGUGUGUGUGUGUGUGUGUGUGUGUAAAGUAUUAUGUUACGCCGUUCGGAUCUGCACU", "log2 enrichment": 1.42}
{"Sequence": "UGGGAGAUGGAUUUUGUUUAUUUUUUUAGCUCAUUUCCAGGGGUGGGAAUUUUUUUUUAAUAUGUGUCAUGAAUAAAGUUGUUUUUGAAA", "log2 enrichment": 3.33}
{"Sequence": "CCUGUGCUACACAUCGUAUGUACCGAAUCGGGUUUUUUGGGGUUUUUUGGGUUUUUUGGGAAAGUAUUAUGUUACGCCGUUCGGAUCUGC", "log2 enrichment": -1.08}
{"Sequence": "UUCCGCGACUACCGGCGUGUGCACAAGCCGCCCAAGGUGCAGGAGAAGUGCCAGCUGGAGAUCAACUUCAACACGCUGCAGACCAAGCUG", "log2 enrichment": -1.72}
{"Sequence": "CAAGUCCUGUGCUACACAUCGUAUGUACCGAAUCGGUUUGGGGUUUGGGGUUUGGGAAAGUAUUAUGUUACGCCGUUCGGAUCUGCACUU", "log2 enrichment": -0.43}
{"Sequence": "CACAGACAACACGCACCCACACAGACACAGAGGAAAGGGGUUGGGAUGGGGACAGGGUGCACAGCAGGGCGGGGUAGGACCCCAGCCCCU", "log2 enrichment": -0.357}
{"Sequence": "CCUGUGCUACACAUCGUAUGUACCGAAUCGGGGCCCCCCGGGGCCCCCCGGCCCCCCGGGAAAGUAUUAUGUUACGCCGUUCGGAUCUGC", "log2 enrichment": -1.78}
{"Sequence": "AAGUCCUGUGCUACACAUCGUAUGUACCGAAUCGGGAGGGAAAAAGGGUUUUUGGGAAAGUAUUAUGUUACGCCGUUCGGAUCUGCACUU", "log2 enrichment": 0.881}
{"Sequence": "CAAGUCCUGUGCUACACAUCGUAUGUACCGAAUCGGGUGGGAAAGGGUUUUUGGGAAAGUAUUAUGUUACGCCGUUCGGAUCUGCACUUC", "log2 enrichment": 1.14}
{"data": "Block 3", "target": "Histone acetyltransferase KAT6A, both winged helices, GST fusion (KAT6A, Homo sapiens, UniProt Q92794, residues 1-181)", "method": "protein binding microarray", "molecule type": "double-stranded DNA, one strand shown", "matrix": "in vitro", "tested at": "not given", "notes": "8-mer, flanks averaged, mean of 2 arrays, mostly near background", "reference": "not given", "direction": "higher = stronger binding", "Residues (chain)": "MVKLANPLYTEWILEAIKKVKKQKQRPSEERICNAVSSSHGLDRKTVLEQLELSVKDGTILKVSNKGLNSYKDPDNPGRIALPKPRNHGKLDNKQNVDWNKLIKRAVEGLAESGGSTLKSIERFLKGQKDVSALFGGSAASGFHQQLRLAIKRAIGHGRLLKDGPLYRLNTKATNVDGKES"}
{"Sequence": "AAAGCTAA", "E-score": -0.0983}
{"Sequence": "ATATTGAG", "E-score": -0.0649}
{"Sequence": "GGTGCAAC", "E-score": -0.0306}
{"Sequence": "CCGAATTA", "E-score": -0.0199}
{"Sequence": "ACGGTACG", "E-score": 0.307}
{"Sequence": "TAAGGCGA", "E-score": -0.0669}
{"Sequence": "ATCTGAGC", "E-score": 0.0229}
{"Sequence": "GAAACTTA", "E-score": -0.0164}
{"Sequence": "GGAGTCAC", "E-score": -0.152}
{"Sequence": "AACACCTC", "E-score": -0.12}
{"Sequence": "GCATCACC", "E-score": -0.0728}
{"Sequence": "GCTATTTA", "E-score": 0.0444}
{"Sequence": "CCAGCAGG", "E-score": -0.223}
{"Sequence": "CAATCCTG", "E-score": -0.157}
{"Sequence": "AAGCAGAA", "E-score": -0.123}
{"Sequence": "GAGCTCAA", "E-score": 0.0399}
{"Sequence": "GCTTGAAC", "E-score": 0.145}
{"Sequence": "TATCAAAA", "E-score": -0.049}
{"Sequence": "ATGGAGTG", "E-score": -0.117}
{"Sequence": "ATCTAGCC", "E-score": -0.0685}
{"Sequence": "CGAAATTC", "E-score": 0.105}
{"Sequence": "GACATGCC", "E-score": 0.00745}
{"Sequence": "AAAACCTA", "E-score": -0.086}
{"Sequence": "ACTTGCGC", "E-score": 0.3}
{"Sequence": "GTATGTGA", "E-score": 0.0612}
{"data": "Block 4", "target": "PABPC1L2, full length, GST fusion (mouse, UniProt A0ABA7IW68)", "method": "RNAcompete", "molecule type": "RNA", "matrix": "in vitro", "tested at": "20 nM", "notes": "7-mer, probes averaged, single round", "reference": "mean of 7-mers", "direction": "higher = stronger binding", "Target sequence (chain)": "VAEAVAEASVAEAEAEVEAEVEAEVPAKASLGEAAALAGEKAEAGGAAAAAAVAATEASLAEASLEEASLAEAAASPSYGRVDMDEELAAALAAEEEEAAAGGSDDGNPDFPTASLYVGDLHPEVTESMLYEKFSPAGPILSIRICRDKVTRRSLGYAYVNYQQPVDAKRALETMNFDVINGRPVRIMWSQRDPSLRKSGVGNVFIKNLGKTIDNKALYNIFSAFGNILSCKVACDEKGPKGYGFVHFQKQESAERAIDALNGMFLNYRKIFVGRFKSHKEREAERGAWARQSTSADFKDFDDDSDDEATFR"}
{"Sequence": "AGUAACG", "7-mer Z-score": -0.0101}
{"Sequence": "UGUUCCU", "7-mer Z-score": -0.224}
{"Sequence": "UUACAGG", "7-mer Z-score": -0.0663}
{"Sequence": "UGAAUUU", "7-mer Z-score": -0.0718}
{"Sequence": "GAGACCA", "7-mer Z-score": 0.189}
{"Sequence": "UCGGAUC", "7-mer Z-score": -0.137}
{"Sequence": "AGCCGUG", "7-mer Z-score": -0.0554}
{"Sequence": "AAUCAAG", "7-mer Z-score": 0.45}
{"Sequence": "GAUACAG", "7-mer Z-score": 0.0986}
{"Sequence": "CACCUAC", "7-mer Z-score": -0.333}
{"Sequence": "UGGCCCC", "7-mer Z-score": -0.331}
{"Sequence": "UUCACAU", "7-mer Z-score": -0.324}
{"Sequence": "AGGAGGC", "7-mer Z-score": 0.18}
{"Sequence": "UCCGGUC", "7-mer Z-score": -0.284}
{"Sequence": "CUCGUAU", "7-mer Z-score": -0.311}
{"Sequence": "AAUCCCG", "7-mer Z-score": -0.309}
{"Sequence": "UGGUGCA", "7-mer Z-score": 0.173}
{"Sequence": "CUCAACC", "7-mer Z-score": -0.271}
{"Sequence": "GAUCGUC", "7-mer Z-score": -0.394}
{"Sequence": "CACAUUG", "7-mer Z-score": -0.0264}
{"Sequence": "CUAAUGC", "7-mer Z-score": -0.36}
{"Sequence": "GCUUACU", "7-mer Z-score": -0.202}
{"Sequence": "ACAGGGC", "7-mer Z-score": 0.425}
{"Sequence": "CACGACC", "7-mer Z-score": -0.0808}
{"Sequence": "AAUAACG", "7-mer Z-score": 0.39}
{"note": "For quick reference, copied from above (block 4):"}
{"Sequence": "CACAUUG", "7-mer Z-score": -0.0264}
{"Sequence": "AGCCGUG", "7-mer Z-score": -0.0554}
{"Sequence": "UCGGAUC", "7-mer Z-score": -0.137}
{"Sequence": "AAUCAAG", "7-mer Z-score": 0.45}
{"Sequence": "CUAAUGC", "7-mer Z-score": -0.36}
{"Sequence": "GCUUACU", "7-mer Z-score": -0.202}
{"Sequence": "UUCACAU", "7-mer Z-score": -0.324}
{"Sequence": "AAUCCCG", "7-mer Z-score": -0.309}
{"Sequence": "CUCAACC", "7-mer Z-score": -0.271}
